Measurements gathered from unrelated publications.
Each line is one published result; not all experiments were run side by side. ± marks the error that the study gave.

The CC50 of `COc1ccc2cc3[n+](cc2c1OC)CCc1cc2c(cc1-3)OCO2` is reported as 91.4 µM (THP-1; 24 h).
`COC(=O)N[C@H](C(=O)N1CCC[C@H]1c1nc(-c2ccc(-c3ccc(-c4c[nH]c([C@@H]5CCCN5C(=O)[C@@H](NC(=O)OC)C(C)C)n4)cc3)cc2)c[nH]1)C(C)C` has a CC50 of at least 17 µM (MDBK, Vero, MT-2, MRC5, Huh-7; cytotoxicity; up to five days).
For `CN1CCN(c2cnc3c(cc(C(=O)NCc4ccc(Cl)cc4)c(=O)n3CC(=O)N3CC(C)(F)C3)n2)C1=O`, the CC50 was over 40 µM (MRC-5; cell viability, CCK-8).
The cell viability of `COc1cc2c(c(O)c1OC)C(=O)c1c(cc(C)c(O)c1OC)C2=O` is reported as 27 ± 2.35% (HK-2 co-cultured with HepaRG; MTT; 266.67 µM, 24 h; relative to: untreated control).
For `N#Cc1ccc(Nc2nc(N)cc(Oc3ccc(-c4ccccc4C#N)cc3F)n2)cc1`, the CC50 was over 256 µM (MT4 uninfected).
For `Cc1cc(O)c2c(c1)C(=O)c1cc(O)cc(O)c1C2=O`, the viability was 56.4 ± 3.23% (HK-2 co-cultured with HepaRG; MTT; 66.67 µM, 24 h; relative to: untreated control).
`Cc1cn(CC(c2cn(C)c3ccccc23)c2cn(C)c3ccccc23)nn1` gave a CC50 of over 20 µM (human primary fibroblasts; viability, MTS; 24 h).
`CCc1cc(F)c(Cc2cnc(Nc3ccc(C#N)c(Cl)c3)o2)c(F)c1` has a CC50 of 10.2 µM (MT2 cells; cell growth).
With `CCOC(=O)c1cn(CC(c2cn(C)c3ccc(C)cc23)c2cn(C)c3ccc(C)cc23)c(C)c1C(=O)OC` the CC50 was over 20 µM (human primary fibroblasts; viability, MTS; 24 h).
`N#Cc1ccc(Nc2nc(N)cc(Oc3ccc(-c4ccccc4F)cc3)n2)cc1` has a CC50 of 6.51 ± 1.64 µM (MT4 uninfected).
`COC(=O)c1c(C)ncn1CC(c1cn(C)c2ccccc12)c1cn(C)c2ccccc12` has a CC50 of over 20 µM (human primary fibroblasts; viability, MTS; 24 h).
`N#Cc1ccc(Nc2nc(N)cc(Oc3c(F)cc(-c4ccccc4)cc3F)n2)cc1` has a CC50 of 21.5 ± 5.49 µM (MT4 uninfected).
`CC1(F)CN(C(=O)Cn2c(=O)c(C(=O)NCc3ccc(Cl)cc3)cc3nc(N4CCN(CC(=O)O)C4=O)cnc32)C1` has a CC50 of over 40 µM (MRC-5; cell viability, CCK-8).

For quick reference, copied from above:
`N#Cc1ccc(Nc2nc(N)cc(Oc3c(F)cc(-c4ccccc4)cc3F)n2)cc1` has a CC50 of 21.5 ± 5.49 µM (MT4 uninfected).
